Published values collected from several papers.
Lines come from different studies, so protocols differ. Numbers after ± are the reported error.
ilvC: Ketol-acid reductoisomerase (NADP(+)) (ilvC, Mycobacterium tuberculosis, UniProt P9WKJ7)
Chain of UniProt P9WKJ7 (whole entry, looked up): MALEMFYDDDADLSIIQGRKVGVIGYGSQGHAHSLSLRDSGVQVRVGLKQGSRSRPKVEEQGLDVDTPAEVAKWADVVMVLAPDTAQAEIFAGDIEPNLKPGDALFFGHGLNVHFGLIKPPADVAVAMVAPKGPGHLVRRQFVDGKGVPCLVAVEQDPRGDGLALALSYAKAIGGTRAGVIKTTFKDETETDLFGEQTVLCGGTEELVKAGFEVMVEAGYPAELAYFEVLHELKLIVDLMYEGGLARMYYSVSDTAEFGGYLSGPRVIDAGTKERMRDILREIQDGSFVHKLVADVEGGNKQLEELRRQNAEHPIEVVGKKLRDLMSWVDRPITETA
PGR: Progesterone receptor (PGR, Homo sapiens, UniProt P06401)
Chain of UniProt P06401 (whole entry, looked up): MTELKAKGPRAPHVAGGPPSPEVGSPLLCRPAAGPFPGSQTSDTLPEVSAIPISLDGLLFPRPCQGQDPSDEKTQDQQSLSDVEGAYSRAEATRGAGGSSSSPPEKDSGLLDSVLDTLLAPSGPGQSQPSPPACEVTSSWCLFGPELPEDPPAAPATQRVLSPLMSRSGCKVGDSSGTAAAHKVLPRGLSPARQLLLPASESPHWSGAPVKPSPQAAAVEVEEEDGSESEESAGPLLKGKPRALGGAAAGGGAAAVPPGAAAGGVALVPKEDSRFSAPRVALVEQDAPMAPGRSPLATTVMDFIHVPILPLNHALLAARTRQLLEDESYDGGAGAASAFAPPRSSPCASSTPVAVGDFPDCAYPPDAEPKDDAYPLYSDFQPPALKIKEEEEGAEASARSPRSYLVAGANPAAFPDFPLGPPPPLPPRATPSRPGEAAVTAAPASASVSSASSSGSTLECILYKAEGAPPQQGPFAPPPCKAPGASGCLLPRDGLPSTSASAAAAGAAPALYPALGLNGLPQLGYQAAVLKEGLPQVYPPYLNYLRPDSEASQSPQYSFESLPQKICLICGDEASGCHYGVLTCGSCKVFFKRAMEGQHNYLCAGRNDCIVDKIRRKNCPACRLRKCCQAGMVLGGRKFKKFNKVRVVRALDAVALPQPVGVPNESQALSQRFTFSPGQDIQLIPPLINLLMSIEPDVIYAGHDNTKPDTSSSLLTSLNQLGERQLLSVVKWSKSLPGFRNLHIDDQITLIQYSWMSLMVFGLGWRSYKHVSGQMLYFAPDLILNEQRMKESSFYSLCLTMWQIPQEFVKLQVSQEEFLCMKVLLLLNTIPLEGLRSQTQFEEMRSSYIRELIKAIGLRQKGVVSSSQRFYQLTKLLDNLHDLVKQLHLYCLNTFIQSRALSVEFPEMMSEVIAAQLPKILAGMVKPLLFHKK
BCHE: Cholinesterase (BCHE, Homo sapiens, UniProt P06276)
Chain of UniProt P06276 (whole entry, looked up): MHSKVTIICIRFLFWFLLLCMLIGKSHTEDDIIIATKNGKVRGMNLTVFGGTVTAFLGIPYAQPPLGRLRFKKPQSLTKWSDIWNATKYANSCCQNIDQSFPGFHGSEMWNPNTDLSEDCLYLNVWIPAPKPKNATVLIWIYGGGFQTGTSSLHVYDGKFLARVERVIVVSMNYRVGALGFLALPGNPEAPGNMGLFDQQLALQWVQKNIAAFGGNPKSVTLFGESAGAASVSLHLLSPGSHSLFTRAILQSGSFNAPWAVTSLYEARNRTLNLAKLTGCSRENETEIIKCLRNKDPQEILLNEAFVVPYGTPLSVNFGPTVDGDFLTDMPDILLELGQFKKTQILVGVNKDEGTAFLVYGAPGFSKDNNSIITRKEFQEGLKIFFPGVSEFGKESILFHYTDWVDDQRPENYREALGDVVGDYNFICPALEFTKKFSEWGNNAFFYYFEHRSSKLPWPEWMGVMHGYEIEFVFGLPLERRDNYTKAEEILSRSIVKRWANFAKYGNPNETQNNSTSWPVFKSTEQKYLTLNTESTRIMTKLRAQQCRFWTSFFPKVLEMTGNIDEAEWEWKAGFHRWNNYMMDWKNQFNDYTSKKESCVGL
AMC9: Metacaspase-9 (AMC9, Arabidopsis thaliana, UniProt Q9FYE1)
Chain of UniProt Q9FYE1 (whole entry, looked up): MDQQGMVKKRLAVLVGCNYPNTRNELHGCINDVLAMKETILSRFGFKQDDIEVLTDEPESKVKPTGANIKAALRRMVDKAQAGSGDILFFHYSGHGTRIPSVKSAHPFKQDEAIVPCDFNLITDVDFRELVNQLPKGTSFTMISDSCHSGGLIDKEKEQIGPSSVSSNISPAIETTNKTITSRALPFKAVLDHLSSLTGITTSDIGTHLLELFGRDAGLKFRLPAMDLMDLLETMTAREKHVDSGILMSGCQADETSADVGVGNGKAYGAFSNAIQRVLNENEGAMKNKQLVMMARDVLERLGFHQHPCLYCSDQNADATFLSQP
Chain of UniProt Q9C0E2 (whole entry, looked up): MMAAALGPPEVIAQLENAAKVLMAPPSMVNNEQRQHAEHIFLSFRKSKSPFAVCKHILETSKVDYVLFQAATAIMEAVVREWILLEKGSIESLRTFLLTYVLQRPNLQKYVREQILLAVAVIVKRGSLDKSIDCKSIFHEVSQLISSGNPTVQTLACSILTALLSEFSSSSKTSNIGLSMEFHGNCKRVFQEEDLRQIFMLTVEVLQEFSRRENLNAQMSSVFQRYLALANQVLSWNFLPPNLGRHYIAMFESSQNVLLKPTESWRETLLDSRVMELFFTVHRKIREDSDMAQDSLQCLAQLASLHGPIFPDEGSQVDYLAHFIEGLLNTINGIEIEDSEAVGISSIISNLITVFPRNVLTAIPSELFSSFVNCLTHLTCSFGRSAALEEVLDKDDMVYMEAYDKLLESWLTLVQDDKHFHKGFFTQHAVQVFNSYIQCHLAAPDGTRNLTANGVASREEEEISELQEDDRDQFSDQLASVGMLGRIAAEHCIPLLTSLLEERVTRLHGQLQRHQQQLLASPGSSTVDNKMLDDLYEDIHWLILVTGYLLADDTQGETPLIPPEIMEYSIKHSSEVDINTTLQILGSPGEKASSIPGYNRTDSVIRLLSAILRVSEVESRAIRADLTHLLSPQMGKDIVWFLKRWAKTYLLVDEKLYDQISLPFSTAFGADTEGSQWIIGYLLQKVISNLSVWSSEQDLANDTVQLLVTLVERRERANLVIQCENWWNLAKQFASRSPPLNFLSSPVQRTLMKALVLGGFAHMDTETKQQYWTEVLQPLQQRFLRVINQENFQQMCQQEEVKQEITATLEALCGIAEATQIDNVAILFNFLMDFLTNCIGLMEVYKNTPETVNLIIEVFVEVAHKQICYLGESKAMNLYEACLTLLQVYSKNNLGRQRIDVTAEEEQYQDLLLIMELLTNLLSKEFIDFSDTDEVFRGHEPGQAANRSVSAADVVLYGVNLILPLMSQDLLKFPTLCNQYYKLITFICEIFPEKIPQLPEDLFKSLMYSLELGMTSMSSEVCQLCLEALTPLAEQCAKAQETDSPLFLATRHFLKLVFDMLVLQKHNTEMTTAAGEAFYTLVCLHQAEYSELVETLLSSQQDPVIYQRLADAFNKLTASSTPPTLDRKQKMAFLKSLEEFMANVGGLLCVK
Chain of UniProt P34903 (whole entry, looked up): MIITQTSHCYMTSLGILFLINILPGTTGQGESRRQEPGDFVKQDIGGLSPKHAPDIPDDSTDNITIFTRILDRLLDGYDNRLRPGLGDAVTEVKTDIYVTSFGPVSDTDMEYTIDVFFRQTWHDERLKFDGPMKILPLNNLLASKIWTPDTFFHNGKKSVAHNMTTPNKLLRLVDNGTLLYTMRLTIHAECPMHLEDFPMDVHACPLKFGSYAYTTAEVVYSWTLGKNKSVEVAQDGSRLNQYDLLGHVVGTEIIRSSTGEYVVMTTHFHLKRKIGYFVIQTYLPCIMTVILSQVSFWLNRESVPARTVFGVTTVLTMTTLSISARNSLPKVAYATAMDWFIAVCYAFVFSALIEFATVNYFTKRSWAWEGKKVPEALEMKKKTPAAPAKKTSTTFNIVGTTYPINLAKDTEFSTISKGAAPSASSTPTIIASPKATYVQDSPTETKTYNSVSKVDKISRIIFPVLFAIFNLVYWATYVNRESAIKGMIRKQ
Chain of UniProt P18507 (whole entry, looked up): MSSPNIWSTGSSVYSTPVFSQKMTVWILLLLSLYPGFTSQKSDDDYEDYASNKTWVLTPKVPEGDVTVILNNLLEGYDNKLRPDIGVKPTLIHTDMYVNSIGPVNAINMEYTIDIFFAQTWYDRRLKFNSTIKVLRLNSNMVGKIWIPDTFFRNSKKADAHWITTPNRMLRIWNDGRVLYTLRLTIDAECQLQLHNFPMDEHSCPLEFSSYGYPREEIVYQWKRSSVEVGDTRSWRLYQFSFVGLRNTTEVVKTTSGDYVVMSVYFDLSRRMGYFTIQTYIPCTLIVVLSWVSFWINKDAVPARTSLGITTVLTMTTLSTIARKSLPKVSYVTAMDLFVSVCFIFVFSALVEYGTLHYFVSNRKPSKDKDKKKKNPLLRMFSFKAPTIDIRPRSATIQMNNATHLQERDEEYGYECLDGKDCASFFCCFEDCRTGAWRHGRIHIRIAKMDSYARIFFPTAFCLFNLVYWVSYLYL
Chain of UniProt P18825 (whole entry, looked up): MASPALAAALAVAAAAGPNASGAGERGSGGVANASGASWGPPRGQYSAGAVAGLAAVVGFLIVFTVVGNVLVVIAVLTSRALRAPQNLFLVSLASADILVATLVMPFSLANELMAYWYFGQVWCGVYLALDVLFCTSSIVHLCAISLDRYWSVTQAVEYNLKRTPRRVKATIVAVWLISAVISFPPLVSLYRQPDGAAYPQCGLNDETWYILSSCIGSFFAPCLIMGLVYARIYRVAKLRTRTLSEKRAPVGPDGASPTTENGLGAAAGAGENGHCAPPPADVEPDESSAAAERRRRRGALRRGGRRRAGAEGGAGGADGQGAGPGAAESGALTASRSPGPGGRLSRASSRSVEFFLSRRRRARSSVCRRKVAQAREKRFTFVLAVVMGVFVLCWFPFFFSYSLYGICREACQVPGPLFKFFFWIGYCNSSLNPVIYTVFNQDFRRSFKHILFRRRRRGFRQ

CCCN(C)c1ccc(CN2CCC(COc3cccc(C(=O)N4CCOCC4)c3)CC2)cc1
IC50 (1,4-dihydroxy-2-naphthoate octaprenyltransferase (Mycobacterium tuberculosis, UniProt P9WIP3); enzyme activity, inhibitor): no inhibition

C[C@@H](Cc1ccccc1)N(C)Cc1ccccc1
IC50 (Alpha-2C adrenergic receptor (ADRA2C, Homo sapiens, UniProt P18825); inhibitor): 0.681 µM

Cc1cc2[nH]c(=O)n(O)c(=O)c2o1
Ki (ilvC; inhibitor; 30 min preincubation, together with: NADPH): 166 ± 61.5 µM

O=C(N[C@H](Cc1ccccc1)C(=O)Nc1ccccc1N1CCOCC1)c1cccs1
IC50 (DNA-directed RNA polymerase subunit beta' / DNA-directed RNA polymerase subunit beta (Mycobacterium tuberculosis, UniProt P9WGY7+P9WGY9)): 0.29 µM

Clc1cccc(N2CCNCC2)c1Cl
EC50 (Muscarinic acetylcholine receptor M4 (CHRM4, Homo sapiens, UniProt P08173); ERK1/2 phosphorylation, agonist; CHO cells): > 20 µM

CCc1nc2c(=O)n(O)c(=O)[nH]c2s1
Ki (ilvC; inhibitor; 30 min preincubation, together with: NADPH): 43.1 ± 9 µM

CCC(=O)O[C@H]1CC[C@H]2[C@@H]3CCC4=CC(=O)CC[C@]4(C)[C@H]3CC[C@]12C
EC50 (PGR; agonist): 0.328 µM

Brc1ccc2c(c1)C(c1ccccn1)=NCc1c(-c3cnco3)ncn1-2
IC50 (GABRG2/GABRA3, with β3 subunit (Homo sapiens, UniProt P18507+P34903)): 0.381 µM

NCCc1ccc(Oc2ccc(O)cc2)c(I)c1
IC50 (Sodium-dependent serotonin transporter (Slc6a4, Mus musculus, UniProt Q60857); serotonin uptake, inhibitor; TAAR1 knock-out mice, striatal synaptosomes; 15 min, together with: [3H]serotonin 50 nM): 4.6 ± 1.1e-06 µM

CCCc1cc(O)c2c(c1)OC(C)(C)[C@@H]1CCC(C)=C[C@@H]21
EC50 (Transient receptor potential cation channel subfamily V member 3 (TRPV3, Homo sapiens, UniProt Q8NET8, E501A); calcium uptake, agonist; HEK293S; mutant E501A, site 2): 35.5 ± 0.48 µM

CN[C@@H](C)[C@H]1[C@H](O)C[C@@]2(C)[C@@H]3CC[C@H]4C(C)(C)[C@@H](NC)CC[C@@]45C[C@@]35CC[C@]12C
IC50 (BCHE; inhibitor, fluorometric): 5.09 ± 2.75 µM

Nc1nc2[nH]c(=O)n(O)c(=O)c2s1
Ki (ilvC; inhibitor; 30 min preincubation, together with: NADPH): 2.53 ± 0.22 µM

C[C@H]1CN(c2n[nH]c3nc(N[C@H]4CC[C@H](NS(=O)(=O)CCC(F)(F)F)CC4)ncc23)CCO1
IC50 (Exportin-4 (Homo sapiens, UniProt Q9C0E2); biochemical): ≥ 20 µM

CCCc1nc2[nH]c(=O)n(O)c(=O)c2s1
Ki (ilvC; inhibitor; 30 min preincubation, together with: NADPH): 1.01 ± 0.14 µM

CC(C)OC(=O)c1cc2c(OCC(O)CNC(C)(C)C)cccc2[nH]1 (centres unmarked)
IC50 (BCHE; inhibitor; with Triton): 1.34 ± 0.34 µM

COc1cc(Br)c(C=C2C(=O)NC(=S)N(c3ccc(Cl)cc3)C2=O)cc1OC
IC50 (AMC9; enzyme activity, inhibitor; pH 5.5, together with: VRPR-AMC 50 µM): 35 µM

O=c1[nH]c2scnc2c(=O)n1O
Ki (ilvC; inhibitor; 30 min preincubation, together with: NADPH): 59.4 ± 13 µM

CC(=O)[C@H]1CC[C@H]2[C@@H]3C[C@H](C)C4=CC(=O)CC[C@]4(C)[C@H]3[C@@H](O)C[C@]12C
EC50 (PGR; agonist): 0.003 µM

CCC1(c2ccccc2)C(=O)NC(=O)NC1=O
IC50 (Bile salt export pump (ABCB11, Homo sapiens, UniProt O95342); inhibitor): > 100 µM

O=C1NC(=S)N(c2ccc(Cl)cc2)C(=O)C1=Cc1ccc(I)o1
IC50 (AMC9; enzyme activity, inhibitor; pH 5.5, together with: VRPR-AMC 50 µM): 19 µM

CO[C@H]1[C@H](O[C@H]([C@H]2O[C@@H](n3ccc(=O)[nH]c3=O)[C@H](O)[C@@H]2O)[C@H](NCCCNC(=O)[C@@H](NC(=O)[C@@H](NC(=O)N[C@H](C(=O)O)C(C)C)[C@@H]2CCN=C(N)N2)[C@@H](O)C(C)C)C(=O)O)O[C@H](CN)[C@H]1O
IC50 (MurX, Mycolicibacterium smegmatis; enzyme activity, inhibitor; P-60 membrane fraction): 0.35 ± 0.008 µM

O=C1NC(=S)NC(=O)C1=CC=Cc1ccco1
IC50 (AMC9; enzyme activity, inhibitor; pH 5.5, together with: VRPR-AMC 50 µM): 60 µM

Cc1nc2c(=O)n(O)c(=O)[nH]c2s1
Ki (ilvC; inhibitor; 30 min preincubation, together with: NADPH): 158 ± 44.4 µM

CC(Cc1ccccc1)NCCC(c1ccccc1)c1ccccc1 (centres unmarked)
IC50 (Histamine H1 receptor (HRH1, Homo sapiens, UniProt P35367); inhibitor): 7.87 µM

O=c1[nH]c2ncsc2c(=O)n1O
Ki (ilvC; inhibitor; 30 min preincubation, together with: NADPH): 0.3 ± 0.04 µM

CC(=O)[C@@]1(O)CC[C@H]2[C@@H]3C=C(Cl)C4=CC(=O)[C@@H]5C[C@@H]5[C@]4(C)[C@H]3CC[C@@]21C
EC50 (PGR; receptor activity): 0.003 µM
